{"data": "Experimental data gathered from unrelated publications", "note": "Lines come from different studies, so protocols differ. ± marks the error that the study gave."}
{"Compound": "CN(C)C(CNC(=O)Nc1cc(C(F)(F)F)ccc1N1CCOCC1)c1ccncc1 (centres unmarked)", "test system": "mouse, serum", "setting": "intraperitoneal, 360 mg/kg single dose", "endpoint": "serum ALT", "value": "721 U/L"}
{"Compound": "CCCCCCCCCCCCCCC(=O)O.O=C1CCCC2C3CCCN4CCCC(CN12)C34 (centres unmarked)", "test": "shake-flask", "test system": "simulated body fluid", "setting": "pH 7.4, 25 °C", "endpoint": "log octanol-water partition coefficient", "value": 0.83}
{"Compound": "CC(C)[C@H](NC(=O)CNC(=O)[C@H](CCC(N)=O)NC(=O)[C@H](C)N)C(=O)O", "test": "Possibly drug-related", "test system": "human", "setting": "10 mg/kg, 3 days, thrice daily dosing", "endpoint": "subjects with adverse events", "value": "33.3%"}
{"Compound": "C1=C(c2cc3c(Nc4ccc5scnc5c4)ncnc3s2)CCNC1", "test system": "BALB/c mouse, plasma", "setting": "oral, 10 mg/kg, 2 h", "endpoint": "concentration", "value": "433 ng/mL"}
{"Compound": "CN[C@](C)(C[18F])C(=O)O", "test system": "SCID mouse SK-OV-3 xenograft, pancreas", "setting": "60 min post injection", "endpoint": "tissue uptake", "value": "27 ± 2.1 %ID/g"}
{"Compound": "CC(C)[C@H](NC(=O)CNC(=O)[C@H](CCC(N)=O)NC(=O)[C@H](C)N)C(=O)O", "test system": "healthy male volunteers", "setting": "intravenous, 45 mg/kg/h, 2 h, together with: LPS 2 ng/kg", "endpoint": "subjects given concomitant medication", "value": "12.5%"}
{"Compound": "C/C=C/C=C/C/C=C/CCCCCCCc1cccc(O)c1O", "test system": "female Kunming mice, tumour-bearing, tumor", "setting": "intravenous, 10 mg/kg, 0.083 h", "endpoint": "tissue concentration", "value": "35200 ± 3290 ng/g"}
{"Compound": "CNC(=O)[C@H](CCC(=O)NCCCC[C@@H]1NC(=O)[C@@H](Cc2ccccc2)NC(=O)[C@H](CC(=O)O)NC(=O)CNC(=O)[C@H](CCCNC(=N)N)NC1=O)NC(=O)CN1CCN(CC(=O)O)CCN(CC(=O)O)CCN(CC(=O)O)CC1 [gallium-68 labelled]", "test system": "female BALB/c nude mice, SK-RC-52 xenograft, tumour", "setting": "0.5 µg, 2 h post injection, together with: excess unlabelled DOTA-E-[c(RGDfK)]2 50 µg", "endpoint": "radioactivity concentration", "value": "decreased"}
{"Compound": "COc1cc2ccnc(Cc3ccc(O[11CH3])c(OC)c3)c2cc1OC", "test": "PET", "test system": "rhesus macaque, putamen", "setting": "intravenous, 3 min", "endpoint": "peak SUV", "value": "~3.2"}
{"Compound": "CC(C)(O)c1ccccc1CC[C@H](c1cccc(/C=C/c2ccc3ccc(Cl)cc3n2)c1)[S+]([O-])CC1(CC(=O)O)CC1 (some centres unmarked)", "test system": "human liver cytosol", "setting": "1 µM, 30 min, 1 mg/mL protein", "endpoint": "percent metabolized", "value": "9.87%"}
{"Compound": "CC(=O)NC1C(OC2OC(CC(O)C3OC(n4ccc(=O)[nH]c4=O)C(O)C3O)C(O)C(O)C2NC(=O)COCc2ccc(N3CCC(Oc4ccc(OC(F)(F)F)cc4)CC3)cc2)OC(CO)C(O)C1O (centres unmarked)", "setting": "HCl salt", "endpoint": "water solubility", "value": "35 mg/mL"}
{"Compound": "COc1cc(NC(=O)C(=O)c2c(C)n(Cc3ccc(Cl)cc3)c3ccc(C)cc23)ccn1", "test system": "cynomolgus monkey, female, plasma", "setting": "intravenous, 1 mg/kg", "endpoint": "C0", "value": "2020 ng/mL"}
{"Compound": "CC[C@H](C)C(=O)N1CCC(NC(=O)Nc2ccc(OC(F)(F)F)c(F)c2)CC1", "test system": "healthy volunteers", "setting": "oral, 8 mg single dose, ventricular extrasystoles", "endpoint": "subjects with extrasystoles TEAE", "value": "0%"}
{"Compound": "CC(=CCC(O)C(C)=Cc1csc(C)n1)CC=CC(C)C(O)C(C)C(=O)C(C)(C)C(O)CC(=O)O (centres unmarked)", "test system": "human, plasma", "setting": "intravenous infusion, 36 mg/m2 KOS-1584, 3 h infusion, cycle 1", "endpoint": "Cmax", "value": "35.6 ± 24 ng/mL"}
{"Compound": "CSCC[C@H](NC(=O)CNC(=O)[C@H](CC(=O)O)NC(=O)[C@@H](NC(=O)[C@@H](NC(=O)[C@@H](NC(=O)CNC(=O)[C@H](CCC(N)=O)NC(=O)[C@H](CCSC)NC(=O)[C@H](CC(=O)O)NC(=O)[C@H](C)NC(=O)[C@H](C)NC(=O)[C@@H](NC(=O)[C@H](CO)NC(=O)[C@@H](N)CC(C)C)[C@@H](C)O)C(C)C)C(C)C)[C@@H](C)O)C(=O)N[C@@H](C)C(=O)N[C@@H](CO)C(=O)NCC(=O)N[C@@H](CC(C)C)C(=O)N[C@@H](CC(=O)O)C(=O)N[C@@H](CCCCN)C(=O)N[C@@H](CC(=O)O)C(=O)N[C@@H](Cc1ccc(O)cc1)C(=O)N[C@@H](CC(C)C)C(=O)N[C@@H](CCCCN)C(=O)N1CCC[C@H]1C(=O)N[C@@H](CC(=O)O)C(=O)N[C@@H](CC(=O)O)C(=O)O", "test system": "human, serum", "setting": "intravenous, 2.5 mg/kg, patients, infusion", "endpoint": "clearance", "value": "21.6 mL/min/kg"}
{"Compound": "CSCC[C@H](NC(=O)[C@H](CC(N)=O)NC(=O)[C@@H](N)Cc1ccccc1)C(=O)N[C@@H](CCC(N)=O)C(=O)N[C@@H](C)C(=O)N[C@@H](CCC(N)=O)C(=O)N[C@@H](CCCNC(=N)N)C(=O)N[C@@H](CCCNC(=N)N)C(=O)N[C@@H](Cc1ccccc1)C(=O)N[C@@H](Cc1ccc(O)cc1)C(=O)N[C@@H](CCC(=O)O)C(=O)N[C@@H](C)C(=O)N[C@@H](CC(C)C)C(=O)N[C@@H](Cc1c[nH]cn1)C(=O)N[C@@H](CC(=O)O)C(=O)NCC(=O)NCC(=O)NCC(=O)NCC(=O)N[C@@H](CO)C(=O)N[C@@H](C)C(=O)N[C@@H](CCC(=O)O)C(=O)N[C@@H](C)C(=O)N[C@@H](CCC(=O)O)C(=O)N[C@@H](C)C(=O)N[C@@H](CCCCN)C(=O)N[C@@H](C)C(=O)N[C@@H](CCCCN)C(=O)N[C@@H](C)C(=O)N[C@@H](CCC(=O)O)C(=O)N[C@@H](C)C(=O)N[C@@H](CCC(=O)O)C(=O)N[C@@H](C)C(=O)N[C@@H](CCCCN)C(=O)N[C@@H](C)C(=O)N[C@@H](CCCCN)C(=O)O", "test": "TEM", "test system": "PBS", "setting": "0.05 mg/mL", "endpoint": "fibril width, second population", "value": "28.3 ± 8.18 nm"}
{"Compound": "CCN(CC)CCOc1ccc(-c2nnn(Cc3ccc(OC)cc3)c2N)cc1", "test system": "CD-1 mouse, male", "setting": "oral, 25 mg/kg", "endpoint": "oral bioavailability", "value": "52.3%"}
{"Compound": "[2H]C([2H])([2H])C([2H])([2H])C([2H])([2H])OC(C(=O)OC1CCNCC1)(c1ccccc1)c1ccccc1", "test system": "healthy Japanese male subjects, plasma", "setting": "oral, 12 mg once daily, day 1, fed, mean", "endpoint": "Cmax", "value": "27.2 ng/mL"}
{"Compound": "c1ccc(C2(CCNC3CCC4(SCCS4)c4ccccc43)CCOC3(CCCC3)C2)nc1 (centres unmarked)", "test system": "rat", "setting": "intravenous, 0.05 mg/kg", "endpoint": "AUC(0-24 h)", "value": "47.6 ng·h/mL"}
{"Compound": "CSCC[C@@H]1NC(=O)[C@@H]2CSSC[C@H](NC(=O)[C@H](CO)NC(=O)[C@H](C)N)C(=O)N[C@@H](CCCNC(=N)N)C(=O)N[C@@H]([C@@H](C)O)C(=O)N3CCC[C@H]3C(=O)N[C@@H](CCCCN)C(=O)N[C@@H](CC(=O)O)C(=O)N[C@H]3CSSC[C@H](NC(=O)[C@H](CCCCN)NC(=O)[C@H](CCCNC(=N)N)NC(=O)[C@H](CC(N)=O)NC1=O)C(=O)N[C@@H](CCCCN)C(=O)N[C@H]1CSSC[C@H](NC(=O)[C@@H]4CCCN4C(=O)[C@H](CC(=O)O)NC(=O)[C@H](C)NC3=O)C(=O)N[C@@H](C)C(=O)N[C@@H](CCCCN)C(=O)N[C@@H](CCC(=O)O)C(=O)N[C@@H]([C@@H](C)O)C(=O)NCC(=O)N[C@@H](CSSC[C@@H](C(N)=O)NC(=O)[C@H](CCCNC(=N)N)NC(=O)[C@H](CC(N)=O)NC1=O)C(=O)N1CCC[C@H]1C(=O)N[C@@H](Cc1ccc(O)cc1)C(=O)NCC(=O)N[C@@H](CCCCN)C(=O)N2", "test system": "DA rat pristane-induced arthritis, serum", "setting": "subcutaneous, 0.1 mg/kg once weekly, 21 days", "endpoint": "Potassium", "value": "4.56 mmol/L"}
{"Compound": "CCN(Cc1ccccc1)C(=O)CCc1nc(CN2CCN(C(=O)Cc3ccc(OC)c(OC)c3)CC2)no1", "test": "LC-MS", "test system": "rat, DRG", "setting": "intravenous, 1 mg/kg, 0.5 h", "endpoint": "concentration", "value": "92 ± 1.7 ng/g"}
{"Compound": "CSCC[C@H](NC(=O)CNC(=O)[C@H](CC(=O)O)NC(=O)[C@@H](NC(=O)[C@@H](NC(=O)[C@@H](NC(=O)CNC(=O)[C@H](CCC(=O)O)NC(=O)[C@H](CCSC)NC(=O)[C@H](CC(=O)O)NC(=O)[C@H](C)NC(=O)[C@H](C)NC(=O)[C@@H](NC(=O)[C@H](CO)NC(=O)[C@@H](N)CC(C)C)[C@@H](C)O)C(C)C)C(C)C)[C@@H](C)O)C(=O)N[C@@H](C)C(=O)N[C@@H](CO)C(=O)NCC(=O)N[C@@H](CC(C)C)C(=O)N[C@@H](CC(=O)O)C(=O)N[C@@H](CCCCN)C(=O)N[C@@H](CC(=O)O)C(=O)N[C@@H](Cc1ccc(O)cc1)C(=O)N[C@@H](CC(C)C)C(=O)N[C@@H](CCCCN)C(=O)N1CCC[C@H]1C(=O)N[C@@H](CC(=O)O)C(=O)N[C@@H](CC(=O)O)C(=O)O", "test system": "male CD-1 mice, serum", "setting": "intravenous, 480 mg/kg", "endpoint": "t1/2 alpha", "value": "2 min"}
{"Compound": "Cc1ccc(/C=C/C(=O)O)cc1-c1cc2c(cc1C)C(C)(C)CCC2(C)C", "test system": "Sprague-Dawley rat, male", "setting": "oral, 100 mg/kg, 1 h, sesame oil vehicle", "endpoint": "blood triglycerides", "value": "68 ± 5.9 mg/dL"}
{"Compound": "O=P1(NCCCl)NCCCO1 (centres unmarked)", "test system": "rat, plasma", "setting": "intravenous, 10 mg/kg CP, together with: ketoconazole 0 mg/kg", "endpoint": "MRT(0-t)", "value": "3.9 ± 0.223 h"}
{"Compound": "O=C(NC1CCCCC1)Oc1cccc(-c2cccc(CO)c2)c1", "test system": "rat liver S9 fraction", "setting": "together with: NADPH-regenerating system", "endpoint": "log hydrolysis rate constant", "value": -1.39}
{"Compound": "CC[C@@]1(O)C(=O)OCc2c1cc1n(c2=O)Cc2c-1nc1cc(F)c(C)c3c1c2[C@@H](NC(=O)CO)CC3", "test system": "PAMPA", "setting": "5 µM, 4 h, pH 7.4", "endpoint": "Papp", "value": "12.2 ×10⁻⁶ cm/s"}
{"Compound": "C[C@H]1C(OC(=O)C(C)(C)C)O[C@@H]2O[C@@]3(C)CC[C@H]4[C@H](C)CCC1[C@@]24OO3 (some centres unmarked)", "test system": "Tg(fli1:EGFP) zebrafish embryos", "setting": "25 µg/mL, up to 48 hpf", "endpoint": "dead embryos", "value": "9 count"}
{"Compound": "CC(C)C[C@H](NC(=O)[C@H](CCCCN)NC(=O)[C@H](CCC(=O)O)NC(=O)[C@H](C)NC(=O)[C@@H](NC(=O)[C@H](CCCCN)NC(=O)[C@H](CC(=O)O)NC(=O)[C@H](Cc1ccc(O)cc1)NC(=O)[C@H](Cc1ccccc1)NC(=O)[C@H](C)NC(=O)[C@H](CCCCN)NC(=O)[C@H](CC(C)C)NC(=O)[C@H](Cc1c[nH]c2ccccc12)NC(=O)[C@@H](N)CC(=O)O)C(C)C)C(=O)N[C@@H](CCCCN)C(=O)N[C@@H](CCC(=O)O)C(=O)N[C@@H](C)C(=O)N[C@@H](Cc1ccccc1)C(=O)N1CCC[C@H]1C(=O)N[C@@H](CC(=O)O)C(=O)N[C@@H](Cc1c[nH]c2ccccc12)C(=O)N[C@@H](C)C(=O)N[C@@H](CCCCN)C(=O)N[C@@H](C)C(=O)N[C@@H](C)C(=O)N[C@@H](Cc1ccc(O)cc1)C(=O)N[C@@H](CC(=O)O)C(=O)N[C@@H](CCCCN)C(=O)N[C@@H](C)C(=O)N[C@@H](C)C(=O)N[C@@H](CCC(=O)O)C(=O)N[C@@H](CCCCN)C(=O)N[C@@H](C)C(=O)N[C@@H](CCCCN)C(=O)N[C@@H](CCC(=O)O)C(=O)N[C@@H](C)C(=O)N[C@@H](C)C(=O)O", "test system": "cynomolgus monkey male, plasma", "setting": "intravenous infusion, 75 mg/kg every other day, day 27", "endpoint": "Tmax", "value": "0 h"}
{"Compound": "[3H]c1sc(C)nc1C=C(C)C1CC2C(CCCC(C)C(O)C(C)C(=O)C(C)(C)C(O)CC(=O)O1)N2CCO (centres unmarked)", "test": "whole-body autoradiography", "test system": "CD2F1 mice, M109 FR− tumour periphery", "setting": "intravenous, 2.2 nmol/kg, 2 h", "endpoint": "radioactivity in tissue", "value": "2.3 ± 0.5 µg-eq/g"}
